Assay results collected from several papers.
A part holds a random share of what one study measured.

Set 1 — method: RNA Bind-n-Seq; form: RNA; sample: in vitro; tested at: 1 µM; setting: whole 134-nt RNA, ends assumed; added: 150 mM KCl; baseline: input library; reading: higher = stronger binding; measurement: log2 enrichment
Target: Ras GTPase-activating protein-binding protein 1, RRM domain (G3BP1, Homo sapiens, UniProt Q13283)
Chain of UniProt Q13283 (whole entry, looked up): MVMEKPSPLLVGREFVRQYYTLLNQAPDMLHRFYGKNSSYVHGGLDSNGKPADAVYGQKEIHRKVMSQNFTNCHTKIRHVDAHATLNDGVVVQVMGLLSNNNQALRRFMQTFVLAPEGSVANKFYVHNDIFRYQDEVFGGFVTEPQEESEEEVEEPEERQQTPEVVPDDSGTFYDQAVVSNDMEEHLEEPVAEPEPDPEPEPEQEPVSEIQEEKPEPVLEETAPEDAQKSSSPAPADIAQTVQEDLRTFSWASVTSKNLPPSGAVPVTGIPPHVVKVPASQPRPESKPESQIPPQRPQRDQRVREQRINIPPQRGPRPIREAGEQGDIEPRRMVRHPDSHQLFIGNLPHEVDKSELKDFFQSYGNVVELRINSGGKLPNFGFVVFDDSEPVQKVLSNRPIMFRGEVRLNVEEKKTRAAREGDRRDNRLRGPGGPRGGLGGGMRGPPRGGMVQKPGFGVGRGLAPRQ
GGGAGUUCUACAGUCCGACGAUCUGGGGACAAGCUGACAGCAGCCAUGGCGAGCGGCAGUGGAGACAGCGUCACCCGUCGGAGCGUGGCAUCACAGUUUUUCACUCAAGAGGAUGGAAUUCUCGGGUGUCAAGG: -0.326
GGGAGUUCUACAGUCCGACGAUCUGGCCCUGGUGGCAUGCGGGGAGGAAGAGGUGGCCUCAUGGAUCGUGGUGGUCCCGGUGGAAUGUUCAGAGGUGGCCGUGGUGGAAACAGUGGAAUUCUCGGGUGUCAAGG: 1.92
GGGAGUUCUACAGUCCGACGAUCAGUCCUGUGCUACACAUCGUAUGUACCGAAUCAAACCCAAAUUUUUAAACCCCCAAAAAAGUAUUAUGUUACGCCGUUCGGAUCUGCACUUGGAAUUCUCGGGUGUCAAGG: -0.346

Set 2 — method: Spec-seq; form: double-stranded DNA, one strand shown; sample: in vitro; tested at: not given; setting: whole probe, mean of replicates; baseline: not given; reading: lower = stronger binding; measurement: relative binding energy
Target: POU, POU domain (Salpingoeca helianthica)
Construct (chain): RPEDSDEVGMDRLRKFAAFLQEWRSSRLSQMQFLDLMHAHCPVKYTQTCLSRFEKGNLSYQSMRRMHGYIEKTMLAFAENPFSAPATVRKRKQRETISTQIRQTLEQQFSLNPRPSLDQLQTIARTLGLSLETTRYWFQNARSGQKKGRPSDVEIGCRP
GAGTCGTCTCGTCAGCACGGTCTAATCCGTAGAGCACTCAGGTC: 0.737 ln ratio
GAGTCGTCTCGTCAGCACATACTCATCCGTAGAGCACTCAGGTC: 1.22 ln ratio
GAGTCGTCTCGTCAGCACATAGCAATCCGTAGAGCACTCAGGTC: 1.03 ln ratio

Set 3 — method: protein-binding microarray; form: double-stranded DNA, one strand shown; sample: in vitro; tested at: 250 nM; setting: 60-bp whole probe; added: salmon DNA 0.4 mg/ml; baseline: random background probes; reading: higher = stronger binding; measurement: log fluorescence
Target: Interferon regulatory factor 7, full length, phosphomimetic (IRF7, Homo sapiens, UniProt Q92985, residues 1-503, S101K/S471D/S472D/S475D/S476D/S477D/S483D/S484D/S487D)
Chain of UniProt Q92985 (whole entry, unmodified, looked up): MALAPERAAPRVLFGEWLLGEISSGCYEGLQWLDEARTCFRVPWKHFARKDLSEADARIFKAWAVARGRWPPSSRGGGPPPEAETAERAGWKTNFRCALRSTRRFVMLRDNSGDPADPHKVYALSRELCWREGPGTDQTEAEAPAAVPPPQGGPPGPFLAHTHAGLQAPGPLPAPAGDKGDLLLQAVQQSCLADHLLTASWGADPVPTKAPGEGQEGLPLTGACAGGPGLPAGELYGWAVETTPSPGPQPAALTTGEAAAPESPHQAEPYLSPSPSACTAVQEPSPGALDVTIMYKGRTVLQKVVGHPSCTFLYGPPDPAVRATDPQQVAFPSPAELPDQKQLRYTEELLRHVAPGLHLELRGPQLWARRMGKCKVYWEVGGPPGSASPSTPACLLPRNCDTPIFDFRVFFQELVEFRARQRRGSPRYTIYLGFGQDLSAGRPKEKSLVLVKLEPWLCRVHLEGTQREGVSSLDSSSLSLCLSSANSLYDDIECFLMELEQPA
GCCTAGCACTTAGATTTCAGATCCGATTAGTGCTAGGTCTTGATTCGCTTGACGCTGCTG: 0.75 z-score
GCCTAGCACTTAGGTTTCCTTTTCCTTTTGTGCTAGGTCTTGATTCGCTTGACGCTGCTG: 7.07 z-score
GCCTAGCACTCACTCTTTGGCAAAGCCAGGTGCTAGGTCTTGATTCGCTTGACGCTGCTG: 0.614 z-score
GCCTAGCACGACAGTATCGGTATCGGGACGTGCTAGGTCTTGATTCGCTTGACGCTGCTG: 1.3 z-score

Mixed results
PhoQ, residues 284 288 289 292 302 303 SLCLSL
fold induction (PhoP, residues 12 14 15 18 19 NNFVT (Escherichia coli, UniProt P23836); Sort-seq, measured: YFP reporter; E. coli; PhoQ-PhoP variant library, added: 10 µM Mg2+; baseline: high Mg2+ state, higher = stronger signaling): 19.1

A few entries again (set 1):
GGGAGUUCUACAGUCCGACGAUCUGGGGACAAGCUGACAGCAGCCAUGGCGAGCGGCAGUGGAGACAGCGUCACCCGUCGGAGCGUGGCAUCACAGUUUUUCACUCAAGAGGAUGGAAUUCUCGGGUGUCAAGG: -0.326
